Assay results pooled from the literature.
Every numbered part comes from another study and shows a few of its results, in no order. Positions count from the first letter of the parent shown.
Sequence of UniProt Q15819 (whole entry, looked up): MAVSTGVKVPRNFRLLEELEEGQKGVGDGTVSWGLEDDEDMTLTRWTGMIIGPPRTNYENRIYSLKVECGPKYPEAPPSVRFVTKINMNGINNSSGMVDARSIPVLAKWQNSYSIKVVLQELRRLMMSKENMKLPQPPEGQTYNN
Sequence of UniProt Q5VVX9 (whole entry, looked up): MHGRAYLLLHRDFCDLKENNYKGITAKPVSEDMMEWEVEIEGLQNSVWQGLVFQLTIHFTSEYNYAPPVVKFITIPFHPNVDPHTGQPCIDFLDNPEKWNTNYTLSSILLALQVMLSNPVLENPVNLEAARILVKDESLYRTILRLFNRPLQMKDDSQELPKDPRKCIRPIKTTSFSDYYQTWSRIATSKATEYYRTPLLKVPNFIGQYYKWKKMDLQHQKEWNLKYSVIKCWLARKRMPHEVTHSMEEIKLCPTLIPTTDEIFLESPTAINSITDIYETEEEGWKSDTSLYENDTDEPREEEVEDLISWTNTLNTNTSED
Sequence of UniProt P51965 (whole entry, looked up): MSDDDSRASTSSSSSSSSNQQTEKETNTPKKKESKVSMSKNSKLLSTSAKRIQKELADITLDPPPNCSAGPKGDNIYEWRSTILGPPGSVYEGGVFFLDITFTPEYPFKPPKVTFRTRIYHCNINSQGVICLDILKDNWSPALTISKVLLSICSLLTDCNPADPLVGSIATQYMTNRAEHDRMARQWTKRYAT
Sequence of UniProt Q96LR5 (whole entry, looked up): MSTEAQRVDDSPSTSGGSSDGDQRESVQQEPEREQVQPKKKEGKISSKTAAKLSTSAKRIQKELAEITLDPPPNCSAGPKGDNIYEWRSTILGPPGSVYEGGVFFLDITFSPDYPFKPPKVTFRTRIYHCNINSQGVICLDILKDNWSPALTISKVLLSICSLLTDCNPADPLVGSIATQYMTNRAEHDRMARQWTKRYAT
Sequence of UniProt Q8WVN8 (whole entry, looked up): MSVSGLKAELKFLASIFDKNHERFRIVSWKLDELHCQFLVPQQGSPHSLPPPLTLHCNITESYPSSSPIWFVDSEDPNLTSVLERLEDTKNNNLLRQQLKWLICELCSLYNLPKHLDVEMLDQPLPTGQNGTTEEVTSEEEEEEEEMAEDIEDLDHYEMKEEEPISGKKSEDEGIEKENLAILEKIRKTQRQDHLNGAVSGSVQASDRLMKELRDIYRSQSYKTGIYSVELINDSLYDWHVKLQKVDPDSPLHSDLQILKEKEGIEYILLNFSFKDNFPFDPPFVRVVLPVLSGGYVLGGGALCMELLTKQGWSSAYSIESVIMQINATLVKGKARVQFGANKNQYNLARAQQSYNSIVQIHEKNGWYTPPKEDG
Sequence of UniProt P49427 (whole entry, looked up): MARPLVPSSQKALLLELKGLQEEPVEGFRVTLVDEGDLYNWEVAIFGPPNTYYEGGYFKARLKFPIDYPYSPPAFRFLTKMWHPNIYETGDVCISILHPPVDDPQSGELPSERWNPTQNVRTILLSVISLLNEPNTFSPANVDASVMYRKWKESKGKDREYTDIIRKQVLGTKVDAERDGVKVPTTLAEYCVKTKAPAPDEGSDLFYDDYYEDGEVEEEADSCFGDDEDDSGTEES

Block 1
Target: Interferon regulatory factor 7, full length, phosphomimetic (IRF7, Homo sapiens, UniProt Q92985, residues 1-503, S471D/S472D/S475D/S476D/S477D/S483D/S484D/S487D)
Method: protein-binding microarray
Molecule type: double-stranded DNA, one strand shown
Medium: in vitro
Concentration: 2200 nM top
Notes: 60-bp whole probe
With: salmon DNA 0.4 mg/ml
Reference: random background probes
Direction: higher = stronger binding
Measurement: fitted relative affinity
Constant ends, left off below: GCCTAGCAC … GTCTTGATTCGCTTGACGCTGCTG
Construct (chain): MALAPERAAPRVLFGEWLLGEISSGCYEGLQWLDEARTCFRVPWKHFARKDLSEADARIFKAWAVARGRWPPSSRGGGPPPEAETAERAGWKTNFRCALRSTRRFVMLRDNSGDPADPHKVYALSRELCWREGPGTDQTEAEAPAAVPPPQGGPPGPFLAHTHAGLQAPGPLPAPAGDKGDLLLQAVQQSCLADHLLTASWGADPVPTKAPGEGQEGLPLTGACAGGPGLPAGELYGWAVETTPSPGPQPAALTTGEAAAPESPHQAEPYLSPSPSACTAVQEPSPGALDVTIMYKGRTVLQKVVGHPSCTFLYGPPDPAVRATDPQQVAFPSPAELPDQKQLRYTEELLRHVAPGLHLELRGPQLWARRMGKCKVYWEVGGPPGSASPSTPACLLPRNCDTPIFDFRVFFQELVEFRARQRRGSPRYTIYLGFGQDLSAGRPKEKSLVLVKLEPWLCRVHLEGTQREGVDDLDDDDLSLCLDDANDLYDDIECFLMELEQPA
TTAGGTTTCGACGATCGGTTAGTGCTA: 1.35 z-score
TTACGTTTCGACTATCGGTTAGTGCTA: 5.02 z-score
TTAGGTATCAGTATCGGTTAGTGCTAG: 0.673 z-score
GGCGGTATCGGTCTCGGGACGTGCTAG: -0.589 z-score
TTAGGTCTCGGTTTCGGTTCGTGCTAG: 12 z-score
GACGGTTCCGGACTGGGGACGTGCTAG: 0.102 z-score
GACGGTCTCCTTATCTTGACGTGCTAG: 0.919 z-score
GACGGACTGGGTATCGGGATGTGCTAG: -0.565 z-score

Block 2
Molecule: KEQLEKHNDICAICYQDMKSAVITPCSHFFHAGCLKKWLYVQETCPLCHCHLKNSSQLP (RNF145 RING domain (UniProt Q96MT1))
Method: yeast two-hybrid
Medium: yeast
Notes: mostly zero background
Reference: not given
Direction: higher = stronger interaction
Measurement: lacZ reporter activity
UBE2U UBC core domain (UniProt Q5VVX9): 10000
UBE2E1 UBC core domain (UniProt P51965): 0
UBE2Q2 UBC core domain (UniProt Q8WVN8): 0
UBE2V2 UBC core domain (UniProt Q15819): 0
CDC34 UBC core domain (UniProt P49427): 0
UBE2E2 UBC core domain (UniProt Q96LR5): 0

Block 3
Target: PABPC1L2, full length, GST fusion (mouse, UniProt A0ABA7IW68)
Method: RNAcompete
Molecule type: RNA
Medium: in vitro
Concentration: 20 nM
Notes: 7-mer, probes averaged, single round
Reference: mean of 7-mers
Direction: higher = stronger binding
Measurement: 7-mer Z-score
Construct (chain): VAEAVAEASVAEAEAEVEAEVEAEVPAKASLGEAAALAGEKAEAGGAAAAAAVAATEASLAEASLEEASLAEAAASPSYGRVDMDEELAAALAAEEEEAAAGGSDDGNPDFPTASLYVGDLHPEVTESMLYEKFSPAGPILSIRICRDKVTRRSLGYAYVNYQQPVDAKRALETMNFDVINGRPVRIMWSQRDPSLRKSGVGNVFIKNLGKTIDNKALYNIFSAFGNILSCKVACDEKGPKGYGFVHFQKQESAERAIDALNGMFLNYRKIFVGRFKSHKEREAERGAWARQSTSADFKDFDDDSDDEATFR
UGCUUAU: -0.423
CCGCAAA: 0.62
UCAUACG: -0.22
CCAUGUC: -0.229
CGCACGA: -0.242
UAUAGUU: -0.289
GAUCCAG: -0.0283
GUUUAUU: -0.353

Single results of other studies
Starting sequence: viral docking peptide; TSVRRALFTGGSD
TSVRRADFTGGSD [L7D]  normalised enrichment score (CCNB2, cyclin fold, Cln2 fusion (human); yeast growth competition, sequencing; yeast; strong parent motif; reference: not given, higher = stronger binding): -0.047

A few entries again (block 1):
GGCGGTATCGGTCTCGGGACGTGCTAG: -0.589 z-score
GACGGTCTCCTTATCTTGACGTGCTAG: 0.919 z-score
TTAGGTATCAGTATCGGTTAGTGCTAG: 0.673 z-score
TTACGTTTCGACTATCGGTTAGTGCTA: 5.02 z-score
